Measured values pooled from the literature.
Each line is one published result; not all experiments were run side by side. ± gives the spread as reported.
Cell line: RAW264.7

Structure (SMILES)	assay	setting	how to read	endpoint	value
CC(C)C[C@H](NC(=O)[C@H](CC(C)C)NC(=O)[C@H](CCCCN)NC(=O)[C@H](CC(C)C)NC(=O)[C@@H]1CCCN1C(=O)[C@H](CCCCN)NC(=O)[C@H](CCCCN)NC(=O)[C@H](CC(C)C)NC(=O)[C@H](CC(C)C)NC(=O)[C@H](CCCCN)NC(=O)[C@H](CCCCN)NC(=O)[C@H](Cc1c[nH]c2ccccc12)NC(=O)[C@H](CCCCN)NC(=O)CNC(=O)CNC(=O)CNC(=O)[C@H](CCCNC(=N)N)NC(=O)[C@H](CCCNC(=N)N)NC(=O)[C@H](CCCNC(=N)N)NC(=O)[C@H](CCCNC(=N)N)NC(=O)[C@H](CCCNC(=N)N)NC(=O)[C@H](CCCNC(=N)N)NC(=O)[C@H](CCCNC(=N)N)NC(=O)[C@H](CCCNC(=N)N)NC(=O)[C@@H](N)CCCNC(=N)N)C(=O)N[C@@H](CCCCN)C(=O)N[C@@H](CCCCN)C(N)=O	ELISA	2 µM, together with: LPS 20 ng/mL	–	TNF-α release	inhibited
O=C(CSc1nnc(-c2ccc(NC(=O)c3cccnc3)cc2)o1)Nc1ccc(F)cc1	reactive oxygen species, inhibitor, fluorescence	LPS-stimulated	–	IC50	67.2 µM
COC(=O)[C@H]1Cc2c([nH]c3ccccc23)CN1S(=O)(=O)c1ccc(C)cc1	NO release, inhibitor, Griess	50 µM, LPS-stimulated	–	inhibition	< 10%
O=C(O)Cc1ccccc1Nc1c(Cl)cccc1Cl	NO release, inhibitor, Griess	LPS-stimulated	–	IC50	29 µM
Fc1cc(F)cc(-c2cc3ccccc3[nH]2)c1	NO release, inhibitor, Griess	50 µM, 20 h, LPS-stimulated	–	inhibition	23.5%
CCCCC[C@@H](O)[C@H]1C(=O)O[C@H](C)[C@@H](O)/C=C/C=C/C=C/C=C/C=C(\C)[C@@H](O)C[C@H](O)C[C@H](O)C[C@H](O)C[C@H](O)C[C@H](O)C[C@@H]1O	endocytosis inhibitor, confocal microscopy	concentration not given, 30 min pre-incubation, 37 °C, together with: TAMRA-GKY25 2 µM for 1 h	–	uptake of TAMRA-GKY25	inhibited
Fc1ccc(-c2cc3ccccc3[nH]2)cc1	sulforhodamine B	50 µM, 20 h	baseline: vehicle	viability	69.7 ± 3.7%
O=C(CSc1nnc(-c2ccc(NC(=O)c3cccnc3)cc2)o1)Nc1ccc([N+](=O)[O-])cc1	IL-6 release, inhibitor, ELISA	LPS-stimulated	–	IC50	5.63 µM
COc1cc(/C=C/c2ccc(O)cc2)cc(OC)c1	NO release, inhibitor	LPS-stimulated	–	IC50	9.9 µg/mL
O=C(CSc1nnc(-c2ccc(NC(=O)c3cccnc3)cc2)o1)Nc1ccccc1Cl	NO release, inhibitor, Griess	LPS-stimulated	–	IC50	47.3 µM
C=C(C)[C@@H]1CC[C@]2(C(=O)O)CC[C@]3(C)[C@H](CC[C@@H]4[C@@]5(C)CC[C@H](O)C(C)(C)[C@@H]5CC[C@]43C)[C@@H]12	LPS-induced NO production, inhibitor, Griess reaction	24 h, together with: 100 ng/mL LPS	–	EC50	14 ± 1 µM
Clc1ccc2cc(-c3ccccc3)[nH]c2c1	sulforhodamine B	50 µM, 20 h	baseline: vehicle	viability	74 ± 11.9%
CCN(CC)C(=O)Cc1c(-c2ccc(OCC[18F])cc2)nn2c(C)cc(C)nc12	–	1 h efflux, 37 °C	baseline: added dose	tracer retention after efflux	21.6 ± 2.05%
C#CCn1c(-c2ccccc2)cc2ccccc21	NO release, inhibitor, Griess	50 µM, 20 h, LPS-stimulated	–	inhibition	96.9%
CC(=O)c1ccc(NC(=O)CSc2nnc(-c3ccc(NC(=O)c4cccnc4)cc3)n2N)cc1	reactive oxygen species, inhibitor, fluorescence	LPS-stimulated	–	IC50	9.69 µM
COc1ccc2cc(-c3cc4ccccc4[nH]3)ccc2c1	sulforhodamine B	50 µM, 20 h	baseline: vehicle	viability	58 ± 7.7%
Nn1c(SCC(=O)Nc2cccc(Br)c2)nnc1-c1ccc(NC(=O)c2cccnc2)cc1	TNF-α release, inhibitor, ELISA	LPS-stimulated	–	IC50	3.01 µM
COc1cc(OC)cc(-c2cc3ccccc3[nH]2)c1	NO release, inhibitor, Griess	50 µM, 20 h, LPS-stimulated	–	inhibition	62.6%
C[C@@H]1C[C@H]2[C@@H]3CCC4=CC(=O)C=C[C@]4(C)[C@@]3(F)[C@@H](O)C[C@]2(C)[C@@]1(O)C(=O)CO	Griess	0.5 µM, 1 h pretreatment, together with: LPS 10 ng/mL, 24 h	baseline: LPS alone	NO production	38.1 ± 3.15%
c1ccc(C2Cc3ccccc3N2)cc1 (stereo not drawn)	NO release, inhibitor, Griess	50 µM, 20 h, LPS-stimulated	–	inhibition	35%
CC(C)COC(=O)N1Cc2[nH]c3ccccc3c2C[C@H]1C(=O)O	NO release, inhibitor, Griess	50 µM, LPS-stimulated	–	inhibition	-3.4%
